Measured values of several laboratories.
Parts stem from different laboratories: compare values within a part only.

Set 1 — effect on: enzyme activity; action: inhibitor; notes: no DTT
Target: Replicase polyprotein 1ab, main protease (rep, Severe acute respiratory syndrome coronavirus 2, UniProt P0DTD1)
`C=C1c2cccc(O)c2C(=O)C2=C(O)[C@]3(O)C(=O)C(C(N)=O)=C(O)[C@@H](N(C)C)[C@@H]3[C@@H](O)[C@H]12` gave an IC50 of > 20 µM.
With `C[C@H](NC(=O)/C(C#N)=C/c1cccc(Br)n1)c1ccccc1` the IC50 was > 20 µM.
For `CNc1nc(Nc2cn(C(C)(C)C#N)nc2C)ncc1C(F)(F)F`, the IC50 was 9.5 µM.

Set 2 — technique: protein binding microarray; form: double-stranded DNA, one strand shown; sample: in vitro; tested at: not given; baseline: not given; reading: higher = stronger binding
Target: Histone acetyltransferase KAT6A, winged helix 1, GST fusion (KAT6A, Homo sapiens, UniProt Q92794, residues 1-85)
Notes: 8-mer, flanks averaged, mean of 2 arrays, mostly near background
Construct (chain): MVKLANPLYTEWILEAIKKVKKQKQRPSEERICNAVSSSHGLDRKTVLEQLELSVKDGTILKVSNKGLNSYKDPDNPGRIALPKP
`ATCATATG` has an E-score of -0.0727.
`GAGTCGTA` has an E-score of -0.124.
`AATTGAAC` has an E-score of -0.17.
`TAAGGAGA` gave an E-score of -0.199.
The E-score of `GCTGTTGA` is reported as -0.00186.
`AGACTGGG` has an E-score of -0.163.
`AGTAGGGA` has an E-score of -0.0685.
`AATATCCT` gave an E-score of -0.155.

Set 3 — technique: protein-binding microarray; form: hairpin DNA; sample: in vitro; tested at: not given; baseline: not given; reading: higher = stronger binding
Target: Runt-related transcription factor 3, Runt domain (RUNX3, Homo sapiens, UniProt Q13761, residues 53-186)
Sequence of UniProt Q13761 (53-186, looked up): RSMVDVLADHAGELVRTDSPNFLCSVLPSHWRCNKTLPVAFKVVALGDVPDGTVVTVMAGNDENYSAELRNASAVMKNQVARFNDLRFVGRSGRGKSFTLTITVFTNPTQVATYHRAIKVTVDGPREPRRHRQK
Notes: whole hairpin DNA, median over replicate spots
`GAGGCCTCGCGCGGTTGGCCTCCTGGCCAACCGCGCGAGGCCTCACACTC` gave a median fluorescence of 5960 a.u.
For `GAGGCCCAACCGCACGAGCCTCCTGGCTCGTGCGGTTGGGCCTCACACTC (5mC at 15)`, the median fluorescence was 7520 a.u.
The median fluorescence of `GAGGCCCAACCGCACGAGCCTCCTGGCTCGTGCGGTTGGGCCTCACACTC (5mC at 29)` is reported as 7320 a.u.

Set 4 — cell line: HEK-293T; effect on: pseudovirus infection; technique: FDA-approved drug library screen; organism: VSV pseudotyped with SARS-CoV-2 spike; tested at: 10 µM; time: 16 h; baseline: vehicle-treated
The GFP-positive cells of `CC(C)C[C@H](CN)CC(=O)O` is reported as 99.9%.
`NC(=O)N1c2ccccc2C=Cc2ccccc21` has a GFP-positive cells of 87.3%.
For `Cc1cc(C(C)(C)C)c(O)c(C)c1CC1=NCCN1`, the GFP-positive cells was 92.3%.

Set 5 — effect on: enzyme activity; action: inhibitor; tested at: 20 µM
Target: Replicase polyprotein 1ab, polymerase (rep, Severe acute respiratory syndrome coronavirus 2, UniProt P0DTD1)
With `CN(C)CC[C@@H](c1ccc(Cl)cc1)c1ccccn1` the inhibition was 6.1%.
The inhibition of `O=C(/C=C\n1cnc(-c2cc(C(F)(F)F)cc(C(F)(F)F)c2)n1)N1CC(F)(F)C1` is reported as -1.09%.
The inhibition of `Cc1[nH]c(=O)c(C#N)cc1-c1ccc2nccn2c1` is reported as -7.18%.
With `CCCNC(C)C(=O)Nc1ccccc1C` (centres unmarked) the inhibition was 1.93%.
For `CCn1cc(C(=O)O)c(=O)c2cnc(N3CCNCC3)nc21`, the inhibition was 22.6%.
With `COc1cccc(OC)c1-c1cc(C(=O)NC2(C(=O)O)C3CC4CC(C3)CC2C4)nn1-c1ccnc2cc(Cl)ccc12` (centres unmarked) the inhibition was 8.82%.
`c1ccc(-c2nn3c(c2-c2ccnc4cc(OCCN5CCOCC5)ccc24)CCC3)nc1` gave an inhibition of -6.45%.
`O=C(NC(Cc1cc(=O)[nH]c2ccccc12)C(=O)O)c1ccc(Cl)cc1` (centres unmarked) has an inhibition of -5.79%.
`CCc1nc(N)nc(N)c1-c1ccc(Cl)cc1` has an inhibition of 6.28%.
With `NC1(c2ccc(-c3nc4ccn5c(=O)[nH]nc5c4cc3-c3ccccc3)cc2)CCC1` the inhibition was 14.4%.
With `CCOc1ccc(Nc2nc(-c3c(C)nc4ccccn34)cs2)cc1` the inhibition was -3.72%.
With `CC(C)Oc1ccc(-c2cnc3c(-c4ccnc5ccccc45)cnn3c2)cc1` the inhibition was -2.95%.
The inhibition of `COCCN1CCC(C(=O)NO)(S(=O)(=O)c2ccc(Oc3ccc(OC(F)(F)F)cc3)cc2)CC1` is reported as -21.5%.
For `c1cc2c(cc1[C@H]1OC[C@H]3[C@@H]1CO[C@@H]3c1ccc3c(c1)OCO3)OCO2`, the inhibition was -0.88%.
The inhibition of `c1ccc2c(CCNc3ccc(Nc4ccncc4)cc3)c[nH]c2c1` is reported as 6.01%.
`O=C(O)/C=C/c1ccc(Cn2ccnc2)cc1` gave an inhibition of -1.12%.
For `CNS(=O)(=O)Cc1ccc2[nH]cc(CCN(C)C)c2c1`, the inhibition was -4.13%.
For `CS(=O)(=O)c1ccc([C@@H](CC2CCCC2)C(=O)Nc2nccs2)cc1`, the inhibition was 0.57%.
With `NCCCCCNCC12CC3CC(CC(C3)C1)C2` the inhibition was -0.79%.
`CCCC(=O)Nc1ccc(OCC(O)CNC(C)C)c(C(C)=O)c1` (centres unmarked) has an inhibition of 0.07%.
For `Cc1ncc(OC[C@@]2(c3cccc(F)c3)C[C@H]2C(=O)Nc2ccc(F)cn2)c(C)n1`, the inhibition was -3.33%.
`O=C(O)[C@@H]1C[C@@H](O)CN1` has an inhibition of -6.48%.
For `CCOC(=O)CCNc1cc(N2CCc3ccccc3CC2)nc(-c2ccccn2)n1`, the inhibition was 15%.
For `CCOC(=O)C1=C(C)NC(=S)NC1c1cccc(O)c1` (centres unmarked), the inhibition was -7.43%.
For `O=Nc1c(O)[nH]c2c(Cl)c(Cl)ccc12`, the inhibition was -1.12%.

Set 6 — technique: competition protein-binding microarray; form: double-stranded DNA, one strand shown; sample: in vitro; tested at: 2 µM; added: Cbf1 competitor, 0.05 µM; reading: higher = stronger binding; shared flanks, not repeated: … GTCTTGATTCGCTTGACGCTGCTG
Target: Phosphate system positive regulatory protein PHO4, full length, GST-tagged (PHO4, Saccharomyces cerevisiae, UniProt P07270, residues 1-312)
Notes: whole 60-bp probe, lowest competitor level
Target sequence (chain): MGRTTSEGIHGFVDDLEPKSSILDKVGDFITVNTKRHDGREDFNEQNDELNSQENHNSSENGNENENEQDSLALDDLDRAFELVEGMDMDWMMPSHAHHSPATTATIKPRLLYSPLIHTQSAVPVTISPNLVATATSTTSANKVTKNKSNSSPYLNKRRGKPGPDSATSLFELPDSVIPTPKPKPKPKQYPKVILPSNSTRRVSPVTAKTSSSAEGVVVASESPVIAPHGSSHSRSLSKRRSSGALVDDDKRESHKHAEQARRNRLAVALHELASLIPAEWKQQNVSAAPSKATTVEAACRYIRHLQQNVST
`TTATCACCGTAATGGCCCAGATTAATGGCGATCCTT` has a fluorescence intensity of 2730 a.u.
The fluorescence intensity of `CGGGGTTAAGTTTGGGTGGTGGGTGGCTTGCAGCAG` is reported as 5540 a.u.
The fluorescence intensity of `CTACCACCACCAACACACGTTACACCACAACAACAG` is reported as 10500 a.u.
`CTTTCCCGATCTTGTTTGGTGGGTGTAGCACATTTG` has a fluorescence intensity of 4630 a.u.
`CTTTTCTGCTACGGCCACGTGGCCGCAGCCCGATTT` gave a fluorescence intensity of 17300 a.u.
With `ACCTCCTCTTCAGTACTAAATCTACCAATACCAAAT` the fluorescence intensity was 3930 a.u.
`GTCTTGTCTCATTTTCACGTGCGGTTCCCCACTTCA` gave a fluorescence intensity of 13200 a.u.
With `ACCGGTTGATGTACTAACGTGACGAACAGTTTCATC` the fluorescence intensity was 7340 a.u.

Some of these lines once more (set 3):
`GAGGCCTCGCGCGGTTGGCCTCCTGGCCAACCGCGCGAGGCCTCACACTC` gave a median fluorescence of 5960 a.u.
For `GAGGCCCAACCGCACGAGCCTCCTGGCTCGTGCGGTTGGGCCTCACACTC (5mC at 15)`, the median fluorescence was 7520 a.u.
The median fluorescence of `GAGGCCCAACCGCACGAGCCTCCTGGCTCGTGCGGTTGGGCCTCACACTC (5mC at 29)` is reported as 7320 a.u.
